Measurements of several laboratories.
A part holds a random share of what one study measured. Changes are numbered by the printed parent chain.
Sequence of UniProt Q38831 (whole entry, looked up): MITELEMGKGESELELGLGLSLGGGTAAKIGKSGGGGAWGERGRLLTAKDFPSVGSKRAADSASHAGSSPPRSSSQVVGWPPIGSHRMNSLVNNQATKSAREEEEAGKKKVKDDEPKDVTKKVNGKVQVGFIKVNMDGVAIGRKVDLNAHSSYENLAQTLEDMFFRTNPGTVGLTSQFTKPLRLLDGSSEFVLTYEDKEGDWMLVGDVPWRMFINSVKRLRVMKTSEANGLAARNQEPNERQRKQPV
Sequence of UniProt Q8RYC6 (whole entry, looked up): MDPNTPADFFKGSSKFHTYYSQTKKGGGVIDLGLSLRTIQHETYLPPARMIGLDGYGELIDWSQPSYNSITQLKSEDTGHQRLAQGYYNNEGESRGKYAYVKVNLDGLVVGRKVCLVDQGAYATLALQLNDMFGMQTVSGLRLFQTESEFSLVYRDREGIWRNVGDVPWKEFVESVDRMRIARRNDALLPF
Sequence of UniProt Q93YR9 (whole entry, looked up): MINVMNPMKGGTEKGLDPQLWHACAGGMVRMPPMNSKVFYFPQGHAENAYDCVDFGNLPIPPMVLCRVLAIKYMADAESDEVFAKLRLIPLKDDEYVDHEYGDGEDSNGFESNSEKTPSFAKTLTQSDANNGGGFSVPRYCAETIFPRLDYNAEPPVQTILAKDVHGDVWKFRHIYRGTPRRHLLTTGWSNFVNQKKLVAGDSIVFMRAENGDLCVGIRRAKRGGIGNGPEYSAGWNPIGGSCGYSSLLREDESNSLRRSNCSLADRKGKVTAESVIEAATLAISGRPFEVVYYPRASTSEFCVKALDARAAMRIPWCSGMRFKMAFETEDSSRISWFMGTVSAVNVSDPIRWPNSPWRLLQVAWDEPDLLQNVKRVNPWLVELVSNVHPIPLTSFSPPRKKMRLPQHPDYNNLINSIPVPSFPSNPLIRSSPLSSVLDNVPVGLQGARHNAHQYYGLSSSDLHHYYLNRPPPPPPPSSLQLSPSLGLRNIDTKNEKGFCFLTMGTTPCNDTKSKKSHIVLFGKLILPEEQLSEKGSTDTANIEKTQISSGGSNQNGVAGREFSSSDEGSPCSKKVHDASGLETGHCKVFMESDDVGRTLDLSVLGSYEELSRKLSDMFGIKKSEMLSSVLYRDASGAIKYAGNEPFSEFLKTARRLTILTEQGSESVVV
Sequence of UniProt Q9LQE8 (whole entry, looked up): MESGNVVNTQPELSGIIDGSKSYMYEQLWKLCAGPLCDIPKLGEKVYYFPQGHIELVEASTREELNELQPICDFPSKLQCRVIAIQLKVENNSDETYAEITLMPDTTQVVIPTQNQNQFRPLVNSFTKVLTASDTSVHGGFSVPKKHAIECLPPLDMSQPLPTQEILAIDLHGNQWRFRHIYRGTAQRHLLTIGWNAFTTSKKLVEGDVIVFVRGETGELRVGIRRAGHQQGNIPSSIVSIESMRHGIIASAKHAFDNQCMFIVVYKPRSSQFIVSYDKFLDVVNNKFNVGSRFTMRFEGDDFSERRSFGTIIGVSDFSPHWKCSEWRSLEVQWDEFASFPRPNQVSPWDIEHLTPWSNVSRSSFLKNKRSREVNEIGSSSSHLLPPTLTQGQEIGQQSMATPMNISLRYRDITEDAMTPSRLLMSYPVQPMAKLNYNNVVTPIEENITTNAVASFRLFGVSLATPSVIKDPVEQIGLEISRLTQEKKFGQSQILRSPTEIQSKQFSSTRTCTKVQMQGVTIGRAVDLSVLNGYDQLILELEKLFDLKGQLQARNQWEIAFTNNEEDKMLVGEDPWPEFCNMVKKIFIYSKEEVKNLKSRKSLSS
Sequence of UniProt O24408 (whole entry, looked up): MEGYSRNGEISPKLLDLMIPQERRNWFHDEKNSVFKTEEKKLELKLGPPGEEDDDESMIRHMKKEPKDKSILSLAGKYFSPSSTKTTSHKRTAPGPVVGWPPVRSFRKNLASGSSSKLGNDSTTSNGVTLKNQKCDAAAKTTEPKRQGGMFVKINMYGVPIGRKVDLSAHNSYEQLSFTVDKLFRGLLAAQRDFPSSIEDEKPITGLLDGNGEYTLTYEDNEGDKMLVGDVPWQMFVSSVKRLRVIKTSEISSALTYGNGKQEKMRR
Sequence of UniProt Q9C7I9 (whole entry, looked up): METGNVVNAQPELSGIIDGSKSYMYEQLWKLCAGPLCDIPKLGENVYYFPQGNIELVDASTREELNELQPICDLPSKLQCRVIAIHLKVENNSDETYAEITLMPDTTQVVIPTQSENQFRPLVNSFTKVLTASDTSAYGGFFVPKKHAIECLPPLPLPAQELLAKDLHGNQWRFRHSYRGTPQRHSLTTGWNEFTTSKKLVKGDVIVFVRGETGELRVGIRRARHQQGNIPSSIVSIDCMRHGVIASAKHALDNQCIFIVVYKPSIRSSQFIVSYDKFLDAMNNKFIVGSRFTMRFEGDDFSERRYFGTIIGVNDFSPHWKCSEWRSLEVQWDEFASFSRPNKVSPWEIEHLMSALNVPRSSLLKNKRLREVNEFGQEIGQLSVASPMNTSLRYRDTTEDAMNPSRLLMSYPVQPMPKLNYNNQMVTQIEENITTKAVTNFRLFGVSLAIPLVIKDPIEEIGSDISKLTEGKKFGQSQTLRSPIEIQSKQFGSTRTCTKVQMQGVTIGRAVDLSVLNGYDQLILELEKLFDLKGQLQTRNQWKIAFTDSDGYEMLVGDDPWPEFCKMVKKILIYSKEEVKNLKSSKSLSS

Series 1 — method: DHFR PCA, deep sequencing; sample: yeast; added: (+)-ABA 4.8 µM; reference: wild-type fitted maximum; reading: higher = stronger binding; quantity: relative binding score
Target: ABI1, truncated, D143A, DHFR fusion (Arabidopsis thaliana)
Notes: methotrexate growth selection, single substitutions
Starting sequence: PYL1, truncated, DHFR fusion (Arabidopsis thaliana); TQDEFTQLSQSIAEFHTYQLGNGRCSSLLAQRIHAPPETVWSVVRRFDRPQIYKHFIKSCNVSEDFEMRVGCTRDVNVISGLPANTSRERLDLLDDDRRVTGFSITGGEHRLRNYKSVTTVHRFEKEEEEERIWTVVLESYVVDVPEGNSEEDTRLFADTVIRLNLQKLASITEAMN; partner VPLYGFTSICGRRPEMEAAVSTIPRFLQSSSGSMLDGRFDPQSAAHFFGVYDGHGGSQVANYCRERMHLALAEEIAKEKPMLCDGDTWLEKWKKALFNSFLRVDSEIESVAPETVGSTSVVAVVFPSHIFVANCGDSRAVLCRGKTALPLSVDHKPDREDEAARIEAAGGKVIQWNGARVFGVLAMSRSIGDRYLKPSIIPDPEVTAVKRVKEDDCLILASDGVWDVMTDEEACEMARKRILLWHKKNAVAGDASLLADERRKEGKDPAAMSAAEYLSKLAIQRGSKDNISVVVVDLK
Y53S: -5.09%
L8Q: 31.6%
A35P: 4.89%
G108T: -0.826%
P37Y: -1.19%
C25S: 19.5%
D96P: -3.02%
S63N: 66.7%
Q2M: 81.6%
V78F: 80.4%
F5I: 69.3%

Series 2 — target: CCNA1, cyclin fold, Cln2 fusion (human); method: yeast growth competition, sequencing; sample: yeast; notes: weak parent motif; reference: not given; reading: higher = stronger binding; quantity: normalised enrichment score
Starting sequence: HIRA docking peptide (human); SLSKRKLELEVET
SLSKRKAELEVET [L7A]: -0.103
SLSKAKAELEVET [R5A L7A]: 0.189
SLSKRKLELEVAT [E12A]: 0.156
SASKRKLELEVET [L2A]: 0.24
SLSKRKLEFEVET [L9F]: 0.562
SLSKRALELEVET [K6A]: 0.336
SLSKKKLELEVET [R5K]: 0.122
SLSKAKLELEVET [R5A]: 0.331
SLSARKLELEVET [K4A]: -0.0741
SLSKRKLALEVET [E8A]: 0.544

Series 3 — method: RNA Bind-n-Seq; form: RNA; sample: in vitro; tested at: 365 nM; reference: no-protein control; reading: higher = stronger binding; quantity: RBNS enrichment (R)
Target: RNA binding protein fox-1 homolog 2, RRM domain, GST-SBP tag (RBFOX2, Homo sapiens, UniProt O43251-10, residues 100-194)
Notes: natural RNA segment, single round, ends assumed
Constant ends, left off below: GGGAGUUCUACAGUCCGACGAUC … UGGAAUUCUCGGGUGCCAA
Target sequence (chain): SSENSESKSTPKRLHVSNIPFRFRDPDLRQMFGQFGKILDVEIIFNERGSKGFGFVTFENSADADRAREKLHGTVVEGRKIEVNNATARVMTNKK
CCACAGACUUUUCAAAGCCCAACUCUACUUUUUUGAGAAUUUGUCCGUACCUACUAAUAUGCCUUAUUCUUCUUCACCUAGUGUUUUAAAAGUCCUGGGUAGAAAGAGUU: 0.465
UGCCCUCUCCCUUUGCAGGACCACAGCUCCCGUCCUUUGGCUUCUGGUCCUUCCUGUUCUCCACCCUGGUUUCUUAAGUAGUUGGUUCUUCUCCUUAGUCUUCCUGACUC: 0.646
UUGGACACAGGAAAUGUUGAUAGAUAUUUCGUUAAAUUGGUGAGUUUGGUAAUAUGUUAGCUCUCAUUGGACAAGAUAGACGCCAUAUAGGAGGCUGAGGGUUAGGACAC: 0.6
GCAUUUAGGCUUUGAUGAGAGGGCACAGUUUGAGUUAGGUUUACCUCCCCCUUUCUGUGCCUGGGAACUGUUUGGUCCAGCUUUAGAACUGUGGUUUUGACUUCCUUAUC: 0.275
CUAGAUUUUAGAACUGUAUGUAGAAUUUUCACAGAAUACAUUGUUAAGCUAACACUUUUAACAACGGUUACAAUGUUAAGUGAAGUUCAUGGAUUUAACAACAAAACAGA: 0.265
CAAGUGCCCUUAGGAAGCCACACGGAGGGGAUGCUGGGAGUCCUGACAUAUGAAUCUAUUUAUUAUGUAGUACUGUGGCAGAGAAGGAAUCCAGGGGCCUGCACUGAUCG: 1.5
AGGCUUAAUGAGCAUAGGUAGCUUGUCCAAGGUCUCAUGACCAGUCAAGGGCAAGCUGGAGUUAAUAAUCUAUAUUUAUUUGACUCAGCACUGUUUUCAUCACAACUUGU: 0.23
AUUGUUCUUAGAUGAUGGAGUCCAUGCAGUUUCUUAGAAAUCGGUCUCAGUGCAUGCUGUGCUUUUUCACAUUUGCUCUGGGUUAUCUGGGAAGUAUCAGGUUCUGGGAG: 0.476
GAUGGACAUGAUAAACCAGUUCUCAGUAGGAGGAAGUAGGACCUUCGAGAGUGGGAGUCUGGUACACCCAUUGGAACAAGUCCUUCGAUAAAUAAAACAGUUAUCACAUU: 0.362
AGGGUUGCCAAUAGAACACUGUGUCCCAGCUGCCCCCAACUUGCCAGAAGAACCAGCACUUACUUCUUUCUCUAGUUCUUAUGUUCAGAAUGUGGUAUUGGCCCUGGCCU: 0.749
UUAAUGUUUAUCCAGCUGCCGUAGUUUGAAACAUUCUGGGCUGGGAGAAGAGGGACCCCGGGGUUUCUAAUUUCAACCCCAAAUGACAUGUUUAUUUGCACCUGAUGCUC: 1.63
AGGAUAGCAAGCAAUGGCAUUCUUGAACAGUCUAAGGCAGGUUUCUCAGUGUGGUCCUGAGAACAGAAGCAUCUGCAUCACCUGGGAAUGUAUUAGAAAUGCAAGUUCCC: 0.588

Series 4 — method: protein-binding microarray; form: double-stranded DNA, one strand shown; sample: in vitro; tested at: 0.8 µM; notes: whole 60-bp probe, no competitor; reading: higher = stronger binding; quantity: fluorescence intensity; constant ends, left off below: … GTCTTGATTCGCTTGACGCTGCTG
Target: Centromere-binding protein 1, full length, N-terminal tag (CBF1, Saccharomyces cerevisiae, UniProt P17106, residues 1-351)
Sequence of UniProt P17106 (whole entry, looked up): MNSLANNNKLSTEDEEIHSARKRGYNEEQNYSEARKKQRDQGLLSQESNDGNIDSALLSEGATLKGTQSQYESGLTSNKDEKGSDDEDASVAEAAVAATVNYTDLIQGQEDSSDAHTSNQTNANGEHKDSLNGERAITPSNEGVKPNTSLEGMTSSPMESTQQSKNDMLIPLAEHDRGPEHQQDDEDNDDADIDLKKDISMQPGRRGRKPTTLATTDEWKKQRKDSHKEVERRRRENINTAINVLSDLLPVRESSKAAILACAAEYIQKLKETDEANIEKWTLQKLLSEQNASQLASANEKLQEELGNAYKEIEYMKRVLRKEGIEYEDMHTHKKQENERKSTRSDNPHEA
CTAATAATCTAATTCCTCATGATTAAATGAGACTTC: 525 a.u.
CTAATGACTCCACGTCACATGAAACCACACCGTTTC: 1160 a.u.
CTAGTCAAAATCGGTCACGTGGTAAAGGGTCTGTTC: 17700 a.u.
CTAAAAAAAAACAAATACATCAGAGCAAGACACTTC: 539 a.u.
CTACAATATACATCCTACGTGCACAACGAACAATTC: 552 a.u.
CCTAACTACTATAGTGATATTGCATAGCTTCGTACA: 504 a.u.
CTAATTAGCTATAGTCACGTTTCGCGTTGAAACTTC: 2270 a.u.
CTAATCTCTAAGTACACGTGCATTTGGACCTATTTC: 4780 a.u.
CTACTTCCCGCAGCTGACATCACAGGGGCGGCCTTC: 715 a.u.
GAACGCGATCAGCCGCACATGGGCATTATCATTTAG: 656 a.u.
CTATGAAATTTCTGTCACGATTATGTGCGGCGCTTC: 746 a.u.
GAATAGGCGATTGATCACGGACATAGCCATATTTAG: 611 a.u.
GAAGAGGATTGCCTACGCGTGGGCTTGATCCACTAG: 494 a.u.
GAAAATCATTATCGTGGTGCACCAGCAGTATTATAG: 525 a.u.
CTAGAAAACGTTTCTCAGGAGACTCTTTTAAGCTTC: 492 a.u.
GAAAAATTTTTATACAACATGACTTTTTCAGTTTAG: 567 a.u.
GAAAGGTTAAGTGGAAACGTGATAAACTGCGGCTAG: 1040 a.u.
GAACTATTTTCGTTAAAGGTGATTACAGGCGGTTAG: 580 a.u.
TGTACGAAGCTATATCAGGTGGATATAGTAGTTAGG: 724 a.u.
CCTAACTACTATAACGTGCGTACATAGCTTCGTACA: 617 a.u.
GAAAGTGATCTTGGTCACATGATATACGCGTGATAG: 8710 a.u.

Series 5 — Molecule: B1 (IAA4); method: two-hybrid; reading: higher = firmer interaction; quantity: positive tests
B1: IAA4 (Arabidopsis thaliana, UniProt P33077); chain MEKVDVYDELVNLKATELRLGLPGTEETVSCGKSNKRVLPEATEKEIESTGKTETASPPKAQIVGWPPVRSYRKNNVQTKKSESEGQGNYVKVSMDGAPYLRKIDLTMYKQYPELMKSLENMFKFSVGEYFEREGYKGSDFVPTYEDKDGDWMLVGDVPWEMFVSSCKRLRIMKGSEVKGLGCGGL
ARF14 497-605 (Arabidopsis thaliana, UniProt Q9LQE8); reference: out of 4 tests: 0
IAA8 (Arabidopsis thaliana, UniProt Q38826); reference: out of 4 tests: 4
IAA18 (Arabidopsis thaliana, UniProt O24408); reference: out of 2 tests: 2
ARF16 570-670 (Arabidopsis thaliana, UniProt Q93YR9); reference: out of 4 tests: 1
IAA17 (Arabidopsis thaliana, UniProt P93830); reference: out of 4 tests: 4
IAA13 (Arabidopsis thaliana, UniProt Q38831); reference: out of 4 tests: 2
ARF20 484-590 (Arabidopsis thaliana, UniProt Q9C7I9); reference: out of 4 tests: 0
IAA32 (Arabidopsis thaliana, UniProt Q8RYC6); reference: out of 4 tests: 0

Some of these lines once more (series 4):
GAACGCGATCAGCCGCACATGGGCATTATCATTTAG: 656 a.u.
CTATGAAATTTCTGTCACGATTATGTGCGGCGCTTC: 746 a.u.
GAATAGGCGATTGATCACGGACATAGCCATATTTAG: 611 a.u.
GAAGAGGATTGCCTACGCGTGGGCTTGATCCACTAG: 494 a.u.
GAAAATCATTATCGTGGTGCACCAGCAGTATTATAG: 525 a.u.
CTAGAAAACGTTTCTCAGGAGACTCTTTTAAGCTTC: 492 a.u.
GAAAAATTTTTATACAACATGACTTTTTCAGTTTAG: 567 a.u.
GAAAGGTTAAGTGGAAACGTGATAAACTGCGGCTAG: 1040 a.u.
GAACTATTTTCGTTAAAGGTGATTACAGGCGGTTAG: 580 a.u.
